# Experimental data gathered from unrelated publications.
# Each line is one published result; not all experiments were run side by side.
Structure (SMILES),assay,system,conditions,endpoint,result
COc1ccc([C@@H](O)c2cc(-c3ncnc4cc(N5CCOCC5)ccc34)c(F)cc2Cl)nn1,,locally advanced rectal cancer patients,"250 mg, drug-related adverse events, added: capecitabine and radiotherapy",patients with anemia,50%
CNC(=O)c1cc(Oc2ccc(NC(=O)Nc3cc(C(C)(C)C)nn3-c3ccc4ncccc4c3)c(F)c2)ccn1,,patients,"oral, dose not given, cycles 1 and 2, High Cmax subgroup",patients with grade 1 cardiac disorders,11%
O=C(Nc1nc2cccc(-c3ccc(CN4CCS(=O)(=O)CC4)cc3)n2n1)C1CC1,,rheumatoid arthritis patients,"oral, 100 mg twice daily, 4 weeks, TEAE regardless of relatedness",patients with Hypertension,0%
Cc1cc(-c2nnc(N)nc2-c2ccc(F)cc2)cc(Cl)n1,refers to: obliterative bronchiolitis,"IO-naive mCRPC patients, male","oral, dose not given, treatment-related, grade 1",patients with immune-mediated AE,0%
CNC(=O)c1ccc(-c2cnc3ncc(Cc4ccc5ncccc5c4)n3n2)cc1F,refers to: Asthenia,cancer patients,"oral, dose not given, dose escalation, grade 3-4",patients with adverse event,3%
COc1cc(Nc2ncc3c(n2)-c2ccc(Cl)cc2C(c2c(F)cccc2OC)=NC3)ccc1C(=O)O,,cancer patients,"oral, dose not given, grade 4 any attribution, added: pembrolizumab",patients with lung infection,4%
Cc1cc(NC2CCN(C(=O)OC3CCN(C(=O)/C=C/CN(C)C)C3)CC2)n2ncc(C(C)C)c2n1 (centres unmarked),"Phase I dose escalation CTCAE v4.0, refers to: abdominal distension",patients with advanced solid tumours,"dose not given, Total dosing any grade",patients with adverse event,7%
CCOc1c([C@H](C)n2nc(C)c3c(N)ncnc32)cc(Cl)c(F)c1[C@@H]1CNC(=O)C1,refers to: QRS ≤100 ms,previously treated B-cell malignancy,"oral, 15 mg once daily, baseline below thresholds",patients,100%
C=CC(=O)NC1CCN(c2ncc3ncnc(Nc4ccc(Oc5ccc6c(c5)ncn6C)c(C)c4)c3n2)CC1,,male patients,"oral, dose not given, on-treatment adverse events",patients with Hyperhidrosis,0%
CC(C)C[C@H](NC(=O)CNC(=O)c1cc(Cl)ccc1Cl)B(O)O,"refers to: Dysgeusia, all grades",newly diagnosed multiple myeloma patients,"oral, dose not given, maintenance phase, new onset, cycle 17 or later",patients with adverse event,0%
CCO[C@H]1CCN(Cc2c(OC)cc(C)c3[nH]ccc23)[C@H](c2ccc(C(=O)O)cc2)C1,refers to: Flatulence,"PNH patients, active haemolysis","oral, 200 mg twice daily, extension phase",patients with adverse event,0%
C[C@@H](Nc1cc(F)cc(F)c1)c1cc(C(=O)N(C)C)cc2c(=O)cc(N3CCOCC3)oc12,"CTCAE v4, refers to: SIRS",patients with advanced solid tumours,"oral, dose not given, phase I dose finding",patients discontinuing for AE,0%
FC(F)(F)c1ccc(CNc2ccc(Cc3c[nH]c4ncc(Cl)cc34)cn2)cn1,refers to: alanine aminotransferase increased,non-TGCT solid tumour patients,"oral, 1000 mg/day, all grades",patients with treatment-related adverse event,6%
C[C@@H](c1ccc2nccn2c1)n1nnc2ncc(-c3cnn(C)c3)nc21,refers to: treatment-related grade ≥3 Pneumonitis,EGFR-mutant MET-altered NSCLC,"oral, dose not given, all",patients with adverse events,1%

# For quick reference, copied from above:
Structure (SMILES),assay,system,conditions,endpoint,result
C[C@@H](Nc1cc(F)cc(F)c1)c1cc(C(=O)N(C)C)cc2c(=O)cc(N3CCOCC3)oc12,"CTCAE v4, refers to: SIRS",patients with advanced solid tumours,"oral, dose not given, phase I dose finding",patients discontinuing for AE,0%
FC(F)(F)c1ccc(CNc2ccc(Cc3c[nH]c4ncc(Cl)cc34)cn2)cn1,refers to: alanine aminotransferase increased,non-TGCT solid tumour patients,"oral, 1000 mg/day, all grades",patients with treatment-related adverse event,6%
